Results from different studies.
Numbers after ± are the reported error.
Sequence of UniProt P10721 (whole entry, unmodified, looked up): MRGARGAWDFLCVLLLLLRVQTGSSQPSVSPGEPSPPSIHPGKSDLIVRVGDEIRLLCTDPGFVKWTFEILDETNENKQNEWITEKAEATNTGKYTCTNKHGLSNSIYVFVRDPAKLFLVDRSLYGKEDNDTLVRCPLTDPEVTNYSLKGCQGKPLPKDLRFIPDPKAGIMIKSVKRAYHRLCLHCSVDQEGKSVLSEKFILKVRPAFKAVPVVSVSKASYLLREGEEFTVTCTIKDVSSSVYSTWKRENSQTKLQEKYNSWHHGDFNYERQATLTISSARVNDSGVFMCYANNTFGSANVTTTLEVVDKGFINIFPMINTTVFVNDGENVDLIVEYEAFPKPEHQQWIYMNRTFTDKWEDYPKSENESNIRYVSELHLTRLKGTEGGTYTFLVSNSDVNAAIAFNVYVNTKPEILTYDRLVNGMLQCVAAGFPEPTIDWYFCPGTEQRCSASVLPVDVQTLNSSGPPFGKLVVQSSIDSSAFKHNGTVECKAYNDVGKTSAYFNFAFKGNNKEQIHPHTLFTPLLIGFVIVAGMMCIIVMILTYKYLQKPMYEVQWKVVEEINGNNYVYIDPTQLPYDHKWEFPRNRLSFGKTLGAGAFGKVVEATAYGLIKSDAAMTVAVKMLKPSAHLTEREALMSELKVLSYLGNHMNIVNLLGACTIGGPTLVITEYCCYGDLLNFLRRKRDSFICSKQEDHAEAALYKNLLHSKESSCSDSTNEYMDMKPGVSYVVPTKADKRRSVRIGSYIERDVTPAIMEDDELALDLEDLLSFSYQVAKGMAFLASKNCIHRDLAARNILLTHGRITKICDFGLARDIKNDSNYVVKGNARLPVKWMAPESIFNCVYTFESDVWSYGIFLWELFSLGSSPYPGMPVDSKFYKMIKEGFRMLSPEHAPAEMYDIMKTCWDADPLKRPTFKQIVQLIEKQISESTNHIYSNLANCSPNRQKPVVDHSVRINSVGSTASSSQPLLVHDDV
Sequence of UniProt Q99759 (whole entry, looked up): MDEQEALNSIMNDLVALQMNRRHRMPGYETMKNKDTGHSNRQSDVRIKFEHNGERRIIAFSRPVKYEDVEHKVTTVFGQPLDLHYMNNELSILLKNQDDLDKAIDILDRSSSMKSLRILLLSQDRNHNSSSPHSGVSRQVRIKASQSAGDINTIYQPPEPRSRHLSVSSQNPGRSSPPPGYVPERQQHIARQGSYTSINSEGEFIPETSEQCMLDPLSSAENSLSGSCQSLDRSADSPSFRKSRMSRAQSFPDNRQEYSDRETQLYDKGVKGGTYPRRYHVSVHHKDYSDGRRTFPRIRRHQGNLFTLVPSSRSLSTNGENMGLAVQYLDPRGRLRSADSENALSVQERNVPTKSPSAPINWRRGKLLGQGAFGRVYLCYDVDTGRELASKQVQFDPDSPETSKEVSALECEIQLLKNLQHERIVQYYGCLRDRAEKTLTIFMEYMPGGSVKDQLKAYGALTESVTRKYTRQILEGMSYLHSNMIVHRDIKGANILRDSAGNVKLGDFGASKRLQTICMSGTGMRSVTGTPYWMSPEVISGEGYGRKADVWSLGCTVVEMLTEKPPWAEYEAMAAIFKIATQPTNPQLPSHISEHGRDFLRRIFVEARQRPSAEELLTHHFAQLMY
Sequence of UniProt Q16288 (whole entry, looked up): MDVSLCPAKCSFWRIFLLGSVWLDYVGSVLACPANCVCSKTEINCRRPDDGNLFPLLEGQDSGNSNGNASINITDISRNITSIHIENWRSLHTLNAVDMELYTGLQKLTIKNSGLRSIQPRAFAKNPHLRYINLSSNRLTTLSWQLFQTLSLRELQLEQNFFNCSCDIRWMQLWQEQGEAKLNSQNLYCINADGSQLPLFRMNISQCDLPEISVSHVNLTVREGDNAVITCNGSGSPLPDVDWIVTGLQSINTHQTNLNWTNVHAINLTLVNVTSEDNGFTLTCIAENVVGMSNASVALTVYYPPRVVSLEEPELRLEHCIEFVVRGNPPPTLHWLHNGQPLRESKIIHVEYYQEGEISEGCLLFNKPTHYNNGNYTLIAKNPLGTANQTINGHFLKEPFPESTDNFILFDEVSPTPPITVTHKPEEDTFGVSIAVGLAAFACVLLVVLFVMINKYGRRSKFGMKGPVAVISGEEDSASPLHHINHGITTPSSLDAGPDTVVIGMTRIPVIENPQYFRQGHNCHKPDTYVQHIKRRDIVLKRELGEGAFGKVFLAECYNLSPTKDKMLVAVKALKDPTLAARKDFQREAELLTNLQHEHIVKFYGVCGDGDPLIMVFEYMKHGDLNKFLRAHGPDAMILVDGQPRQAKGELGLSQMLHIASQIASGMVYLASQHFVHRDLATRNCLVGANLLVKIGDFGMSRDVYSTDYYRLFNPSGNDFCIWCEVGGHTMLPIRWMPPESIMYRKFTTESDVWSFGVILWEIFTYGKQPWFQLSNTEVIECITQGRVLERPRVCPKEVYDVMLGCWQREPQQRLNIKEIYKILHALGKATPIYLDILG
Sequence of UniProt Q9UL54 (whole entry, looked up): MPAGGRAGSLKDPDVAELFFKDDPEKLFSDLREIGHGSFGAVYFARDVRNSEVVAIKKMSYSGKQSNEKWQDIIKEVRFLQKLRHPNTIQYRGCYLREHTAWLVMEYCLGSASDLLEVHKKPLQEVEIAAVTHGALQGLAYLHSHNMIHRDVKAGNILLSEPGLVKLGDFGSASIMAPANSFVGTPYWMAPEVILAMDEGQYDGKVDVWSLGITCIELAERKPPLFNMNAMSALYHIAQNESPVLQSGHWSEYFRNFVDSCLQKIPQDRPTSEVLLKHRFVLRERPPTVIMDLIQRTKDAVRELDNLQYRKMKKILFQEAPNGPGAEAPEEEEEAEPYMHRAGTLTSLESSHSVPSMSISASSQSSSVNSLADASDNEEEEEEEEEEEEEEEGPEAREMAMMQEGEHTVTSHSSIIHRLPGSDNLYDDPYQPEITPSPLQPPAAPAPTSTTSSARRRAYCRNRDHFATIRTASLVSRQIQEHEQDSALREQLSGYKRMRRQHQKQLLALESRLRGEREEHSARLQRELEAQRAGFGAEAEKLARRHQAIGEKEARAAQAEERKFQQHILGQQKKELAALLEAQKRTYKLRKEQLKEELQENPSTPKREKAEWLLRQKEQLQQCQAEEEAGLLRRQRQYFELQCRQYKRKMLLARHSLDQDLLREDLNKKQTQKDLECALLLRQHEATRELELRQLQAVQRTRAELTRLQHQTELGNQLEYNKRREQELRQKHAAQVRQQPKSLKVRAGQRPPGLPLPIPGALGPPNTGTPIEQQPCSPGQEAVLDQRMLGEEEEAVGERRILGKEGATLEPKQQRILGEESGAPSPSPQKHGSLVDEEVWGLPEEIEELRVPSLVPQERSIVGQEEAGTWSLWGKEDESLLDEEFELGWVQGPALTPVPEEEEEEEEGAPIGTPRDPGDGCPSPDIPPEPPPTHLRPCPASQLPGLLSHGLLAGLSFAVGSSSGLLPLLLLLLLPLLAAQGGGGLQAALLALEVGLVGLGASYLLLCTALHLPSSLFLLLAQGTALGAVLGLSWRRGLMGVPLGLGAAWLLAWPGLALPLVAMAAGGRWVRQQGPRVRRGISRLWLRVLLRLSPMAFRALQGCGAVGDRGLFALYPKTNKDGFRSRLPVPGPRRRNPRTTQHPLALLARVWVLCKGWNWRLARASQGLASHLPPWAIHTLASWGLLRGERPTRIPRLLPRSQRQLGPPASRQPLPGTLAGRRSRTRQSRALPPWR
Sequence of UniProt O96028 (whole entry, looked up): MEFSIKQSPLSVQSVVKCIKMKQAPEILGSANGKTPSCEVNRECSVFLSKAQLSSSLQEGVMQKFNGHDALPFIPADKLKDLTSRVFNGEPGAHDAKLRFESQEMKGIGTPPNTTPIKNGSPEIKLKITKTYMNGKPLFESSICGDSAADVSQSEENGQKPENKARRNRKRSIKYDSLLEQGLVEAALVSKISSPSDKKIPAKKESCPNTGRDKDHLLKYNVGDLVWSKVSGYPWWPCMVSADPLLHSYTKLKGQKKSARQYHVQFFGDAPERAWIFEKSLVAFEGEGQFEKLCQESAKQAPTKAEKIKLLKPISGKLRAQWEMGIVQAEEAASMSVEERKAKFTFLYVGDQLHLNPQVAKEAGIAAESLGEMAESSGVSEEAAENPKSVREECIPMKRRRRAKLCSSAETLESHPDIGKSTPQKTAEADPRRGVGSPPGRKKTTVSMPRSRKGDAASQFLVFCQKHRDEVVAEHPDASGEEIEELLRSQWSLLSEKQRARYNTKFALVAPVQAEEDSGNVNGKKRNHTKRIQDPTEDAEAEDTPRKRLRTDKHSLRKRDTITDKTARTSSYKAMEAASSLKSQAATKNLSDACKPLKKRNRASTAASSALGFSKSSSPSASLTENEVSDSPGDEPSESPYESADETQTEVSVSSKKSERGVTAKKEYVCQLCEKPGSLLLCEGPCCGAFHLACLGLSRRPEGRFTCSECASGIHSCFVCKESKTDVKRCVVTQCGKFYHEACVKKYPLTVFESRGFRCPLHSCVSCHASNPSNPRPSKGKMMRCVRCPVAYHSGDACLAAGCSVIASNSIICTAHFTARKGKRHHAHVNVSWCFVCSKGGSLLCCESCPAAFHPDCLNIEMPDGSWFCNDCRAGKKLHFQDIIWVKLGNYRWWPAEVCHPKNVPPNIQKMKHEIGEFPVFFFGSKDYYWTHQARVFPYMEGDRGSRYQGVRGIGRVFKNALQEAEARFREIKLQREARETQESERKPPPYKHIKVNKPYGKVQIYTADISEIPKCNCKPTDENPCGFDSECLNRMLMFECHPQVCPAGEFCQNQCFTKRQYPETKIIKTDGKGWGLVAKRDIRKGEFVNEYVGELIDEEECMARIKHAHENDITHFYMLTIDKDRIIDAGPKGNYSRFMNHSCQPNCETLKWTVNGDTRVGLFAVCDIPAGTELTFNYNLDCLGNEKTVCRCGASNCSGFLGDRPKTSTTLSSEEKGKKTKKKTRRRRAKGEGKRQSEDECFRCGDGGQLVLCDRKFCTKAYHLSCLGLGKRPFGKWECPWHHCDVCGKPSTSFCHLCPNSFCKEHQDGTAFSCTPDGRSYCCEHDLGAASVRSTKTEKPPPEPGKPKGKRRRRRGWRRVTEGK

| SMILES | tested on | test | test system | setting | scale | measurement | value |
| --- | --- | --- | --- | --- | --- | --- | --- |
| CC[C@]1(C)Oc2cc(ccc2O)[C@H](O)[C@@H](NC)C(=O)N[C@H](C(C)C)C(=O)N[C@H]1C(=O)NCC(=O)O | Tubulin alpha-1A/beta chain (Sus scrofa, UniProt P02550+P02554) | tubulin polymerization |  | concentration not given |  | inhibition | no inhibition |
| O=C(N1CCCCC1)n1ccnn1 | Neutral cholesterol ester hydrolase 1 (Mus musculus, UniProt Q8BLF1) | probe labeling, inhibitor, gel-based competitive ABPP | mouse T-cell proteome | 1 µM, 30 min, 37 °C |  | inhibition | < 50% |
| O=C1NC(=O)c2c1c1cc(F)c[n+]3c1c1c2c2cc(O)ccc2[n]1[Ru-4]312([N]=C=S)[S+]3CC[S+]1CC[S+]2CC3 (stereo not drawn) | KIT (Homo sapiens, UniProt P10721, D816H) | enzyme activity |  | 100 nM, human enzyme, with: 10 µM ATP | reference: untreated | remaining activity | 5% |
| CC(C)(C)C(=O)OCOP(=O)(OCOC(=O)C(C)(C)C)C1CCCN(O)C1=O (stereo not drawn) | SNB-75 |  |  |  |  | CC50 | > 100 µM |
| COCC(=O)N1CCc2cc(-c3csc(NC(=O)c4cc(OC)cc(OC)c4)n3)ccc21 | GABA-A receptor benzodiazepine site, rat brain | radioligand binding, inhibitor |  | 10 µM, with: [3H]flunitrazepam |  | inhibition | -5% |
| O=C(CN1CN(c2ccccc2)C2(CCN(C(=O)c3cnc4[nH]ncc4c3)CC2)C1=O)NCC(F)(F)F | PNCK (Homo sapiens, UniProt Q6P2M8) | inhibitor |  | concentration not given |  | inhibition | < 50% |
| CN[C@@H]1[C@H](O)[C@H](NC)[C@H]2O[C@]3(O)[C@H](O[C@@H]2[C@H]1O)O[C@H](C)C[C@H]3NC(=O)Cc1cc(Cl)ccn1 | PTAFR (Homo sapiens, UniProt P25105) | ligand displacement, radioligand |  | 10 µM |  | inhibition | 6% |
| COc1ccc(F)cc1S(=O)(=O)Nc1cnc2c(c1)C(=O)NCCO2 | CYSLTR1 (Homo sapiens, UniProt Q9Y271) | ligand displacement, radioligand |  | 10 µM |  | inhibition | 0% |
| Cc1sc2c(c1C)C(c1ccc(Cl)cc1)=NC(CC(=O)OC(C)(C)C)c1nnc(C)n1-2 (stereo not drawn) | TBXA2R (Homo sapiens, UniProt P21731) | ligand displacement, radioligand |  | 1 µM |  | inhibition | -19% |
| N[C@H](C(=O)N1CCCC1)C1CCN(c2nccc3c(-c4ncc(Cl)cc4Cl)cccc23)CC1 | IRAK4 (Homo sapiens, UniProt Q9NWZ3) | kinase activity, inhibitor |  | 10 µM, with: ATP 1 mM |  | inhibition | 0.3% |
| O=C1NC2(CC2)COc2ncc(F)cc2[C@H]2COCCN2c2ccn3ncc1c3n2 |  |  | Sprague-Dawley rat, female, ovaries | oral, 20 mg/kg/day, 4 weeks dosing, end of recovery |  | organ-to-brain weight ratio | 5.4 ± 0.14% |
| CCC1CC(c2ccc(C(=O)O)cc2C)=NN1c1ccc(C#N)c(Cl)c1 (stereo not drawn) | NSD2 (Homo sapiens, UniProt O96028) | enzyme activity, inhibitor |  | 10 µM |  | inhibition | 32% |
| CS(C)(=O)=Nc1ccc(-c2ccc(-c3nc4cc(O[C@@H]5CO[C@H]6[C@@H]5OC[C@H]6O)[nH]c4cc3F)cc2)cc1 | MKNK2 (Homo sapiens, UniProt Q9HBH9) | enzyme activity, inhibitor |  | 10 µM |  | inhibition | 9% |
| COc1ccccc1-c1n[nH]c2nc(NC3CCN(C(=O)Cc4ccc(F)cc4F)CC3)ncc12 |  | bead binding, competition bead pull-down, measured: LINJ.26.0840 | Leishmania donovani axenic amastigote extract | 10 µM | reference: vehicle | relative abundance | 1.23 |
| CC(C)[C@H]1NC(=O)C[C@H]2/C=C/CCSSC[C@@H](NC1=O)C(=O)N[C@H](Cc1cccc3ccccc13)C(=O)NCC(=O)O2 | MAP3K3 (Homo sapiens, UniProt Q99759) |  |  | 10 µM |  | inhibition | 2.6% |
| CN(C)[C@H]1C[C@@]23CC[C@@]4(O2)C(=CC[C@]2(C)[C@@H](c5ccc6ccncc6c5)CC[C@H]24)C=C3[C@@H](O)[C@@H]1O | TAOK2 (Homo sapiens, UniProt Q9UL54) | ATP probe labelling, inhibitor, KiNativ profiling |  | 0.1 µM |  | inhibition | 9.8% |
| COc1ccccc1-c1n[nH]c2nc(N[C@H]3CC[C@H](NS(=O)(=O)CC(C)C)CC3)ncc12 |  | bead binding, competition bead pull-down, measured: LINJ.20.0110 | Leishmania donovani extract | 10 µM | reference: vehicle | relative abundance | 0.99 |
| C=CC(=O)Nc1cc(-c2nn(C3CCC(N4CCN(C(C)=O)CC4)CC3)c3ncnc(N)c23)ccc1Oc1ccccc1 (stereo not drawn) | MAST3 (Homo sapiens, UniProt O60307) | inhibitor, KiNativ profiling | biochemical | 2 µM |  | inhibition | -3.6% |
| O=C(O)c1ccccc1/C=N/Nc1nc(-c2ccccc2Cl)cs1 | NTRK3 (Homo sapiens, UniProt Q16288) | enzyme activity, inhibitor |  | 1 µM |  | inhibition | -5.12% |
| Nc1ccc(/C=C/C(=O)N2CCc3c(oc4c(-c5ccc(F)cc5)cc(-c5ccc(C(=O)N6CCC(F)(F)CC6)cn5)cc34)C2)cn1 | KIT (Homo sapiens, UniProt P10721) | binding, competition with immobilised ligand |  | 1 µM |  | remaining binding | 100% |
| C[C@H](NCc1ccc(-c2ccc(C(F)(F)F)cc2)cc1)C(N)=O | Aurora kinase A (AURKA, Homo sapiens, UniProt O14965) | cell-free assay, competition with immobilised ligand |  | 1 µM |  | inhibition | 20% |
| CCN(CC)CCOc1ccc(-c2nnn(Cc3ccc(OC)cc3)c2N)cc1 | KCNQ1 (Homo sapiens, UniProt P51787) | ion channel | CHO | 10 µM, with: 10000 nM |  | inhibition | 44% |
| CCOC(=O)[C@](CC)(CCCSCCOCCOCCNC(=O)c1ccc(-c2c3ccc(=N)c(S(=O)(=O)O)c-3oc3c(S(=O)(=O)O)c(N)ccc23)c(C(=O)O)c1)NC(=O)c1ccc(C2CC2)c(Cc2ccc(F)cc2)n1 | L-type calcium channel diltiazem site | specific binding, antagonist radioligand binding |  | 10 µM |  | inhibition | 6% |
| CC[C@H](C)[C@H](NC(=O)[C@H](CO)NC(=O)[C@H](Cc1ccc(O)cc1)NC(=O)[C@H](Cc1ccc(O)cc1)NC(=O)[C@H](CC(N)=O)NC(=O)CNC(=O)[C@H](CO)NC(=O)[C@H](Cc1ccc(O)cc1)NC(=O)[C@H](CO)NC(=O)[C@H](CO)NC(=O)[C@H](CC(N)=O)NC(=O)COCCOCCNC(=O)CN1CCN(CC(=O)O)CCN(CC(=O)O)CCN(CC(=O)O)CC1)C(=O)N[C@@H](CC(C)C)C(N)=O [copper-64 labelled] |  | dynamic PET | tamoxifen-induced PDAC mouse model, pancreas | 3.5 min, CLDN4-expressing tumours |  | maximum pancreas uptake | 16.2 %IA/cc |

Excerpt of the above:
| SMILES | tested on | test | test system | setting | scale | measurement | value |
| --- | --- | --- | --- | --- | --- | --- | --- |
| C=CC(=O)Nc1cc(-c2nn(C3CCC(N4CCN(C(C)=O)CC4)CC3)c3ncnc(N)c23)ccc1Oc1ccccc1 (stereo not drawn) | MAST3 (Homo sapiens, UniProt O60307) | inhibitor, KiNativ profiling | biochemical | 2 µM |  | inhibition | -3.6% |
